Published values gathered from unrelated publications.
Every numbered part comes from another study and shows a few of its results, in no order. Values joined by “and” are separate records of one study, mostly repeats; a detail may differ.
Chain of UniProt P28223 (whole entry, looked up): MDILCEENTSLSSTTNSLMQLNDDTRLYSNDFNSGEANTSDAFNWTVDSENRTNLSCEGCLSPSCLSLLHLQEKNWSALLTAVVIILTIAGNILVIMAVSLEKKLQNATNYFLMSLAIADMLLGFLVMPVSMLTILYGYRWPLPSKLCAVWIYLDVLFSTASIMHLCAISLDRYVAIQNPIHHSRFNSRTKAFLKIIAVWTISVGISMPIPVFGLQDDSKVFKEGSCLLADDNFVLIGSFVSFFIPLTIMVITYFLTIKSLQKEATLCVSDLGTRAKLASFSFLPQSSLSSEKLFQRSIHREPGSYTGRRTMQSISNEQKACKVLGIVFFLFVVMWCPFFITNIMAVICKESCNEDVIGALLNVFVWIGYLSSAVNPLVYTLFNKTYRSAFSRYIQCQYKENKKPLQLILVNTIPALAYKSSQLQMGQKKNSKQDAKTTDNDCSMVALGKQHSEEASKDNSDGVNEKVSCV

Sample 1
SMILES: Cc1cc2c(C(N)=O)c(N)n(-c3c(C)ccc(O)c3C)c2nc1C
Relative to: DMSO
cell line | assay | setting | cell growth
NCI-H1048 | MTT | 1.52 nM, 5 d | 102% and 101%
NCI-H1048 | MTT | 4.57 nM, 5 d | 99.2% and 92.3%
NCI-H446 | Vi-Cell counting | 1.11 µM, 5 days | 77.9% and 87.7%
NCI-H69 | MTT | 3.33 µM, 5 d | 39.5% and 34.9%
NCI-H1048 | MTT | 1.11 µM, 5 d | 36.7% and 32.8%
NCI-H1048 | MTT | 124 nM, 5 d | 80.2% and 78.2%
NCI-H1048 | MTT | 371 nM, 5 d | 58.5% and 75.1%
NCI-H446 | Vi-Cell counting | 41.1 nM, 5 days | 92% and 97%

Sample 2
Species: mouse
Sample: microsomes or S9
Concentration: 2 µM
Time: 0.5 h
Structure (SMILES) | remaining compound [%]
CC(=O)c1cnc2c(C)c(-c3ccc(C)cc3)nn2c1C | 0.199
Cc1nn(CC(=O)O)c2nccc(-c3cnn(C)c3)c12 | 73.4
CCOc1cccc(CNC(=O)c2c(OCC(C)C)cc(=O)n3c2CCCCC3)c1 | 0.0898
O=C(O)c1ccc(-c2noc3ccc(-c4ccc(O)cc4)cc23)cc1 | 80.4
Cc1ccc(CO)c(-c2ccc3c(c2)CNCC2(CCC2)O3)c1 | 0.213
COC(=O)CC(c1cc(OC)c(O)c(OC)c1)c1c(O)n2ccccc2nc1=O (stereo not shown) | 78.2
Cc1nc2c(c(C)c(C)n2CCN2CCCC2)c(-c2ccc(Cl)cc2)c1[C@H](OC(C)(C)C)C(=O)O | 83.8
O=C(c1ccc(-c2ncc[nH]2)s1)N1CC[C@@H](c2ccc(F)cc2)[C@H](O)C1 | 30.8

Sample 3
SMILES: C=CCc1ccc(O)c(-c2cc(CC=C)ccc2O)c1
Effect on: chloride current
Technique: whole-cell voltage clamp
ANO1 del476-501/F803A: Anoctamin-1 (ANO1, Homo sapiens, UniProt Q5XXA6, del476-501/F803A)
Chain of UniProt Q5XXA6 (whole entry, unmodified, looked up): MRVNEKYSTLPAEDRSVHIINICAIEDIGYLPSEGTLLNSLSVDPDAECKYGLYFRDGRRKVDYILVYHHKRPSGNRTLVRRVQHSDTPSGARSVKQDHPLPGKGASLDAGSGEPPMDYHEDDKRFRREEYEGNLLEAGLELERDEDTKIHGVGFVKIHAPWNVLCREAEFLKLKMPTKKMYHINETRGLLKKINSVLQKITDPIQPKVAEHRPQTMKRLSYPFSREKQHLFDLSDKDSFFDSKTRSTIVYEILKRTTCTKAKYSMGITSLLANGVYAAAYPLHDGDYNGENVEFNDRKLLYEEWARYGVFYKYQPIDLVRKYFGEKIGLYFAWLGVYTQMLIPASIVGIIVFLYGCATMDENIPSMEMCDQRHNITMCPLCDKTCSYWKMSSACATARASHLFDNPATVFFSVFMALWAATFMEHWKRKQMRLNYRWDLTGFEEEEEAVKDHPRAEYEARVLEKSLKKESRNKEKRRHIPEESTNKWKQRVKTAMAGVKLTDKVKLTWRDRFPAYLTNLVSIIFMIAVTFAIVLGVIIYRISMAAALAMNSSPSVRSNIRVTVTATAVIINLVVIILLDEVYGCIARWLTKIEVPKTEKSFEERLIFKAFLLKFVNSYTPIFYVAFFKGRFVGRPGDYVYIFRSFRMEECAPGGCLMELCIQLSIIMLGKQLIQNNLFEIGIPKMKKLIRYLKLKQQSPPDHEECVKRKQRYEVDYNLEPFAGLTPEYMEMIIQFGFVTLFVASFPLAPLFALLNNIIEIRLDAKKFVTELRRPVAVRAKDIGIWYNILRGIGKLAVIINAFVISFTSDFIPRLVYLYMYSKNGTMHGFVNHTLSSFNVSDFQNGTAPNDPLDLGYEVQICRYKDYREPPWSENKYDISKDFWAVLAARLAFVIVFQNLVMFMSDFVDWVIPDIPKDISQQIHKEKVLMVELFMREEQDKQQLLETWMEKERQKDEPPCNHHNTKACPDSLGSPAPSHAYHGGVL
ANO1 del476-501/E649I: Anoctamin-1 (ANO1, Homo sapiens, UniProt Q5XXA6, del476-501/E649I)
target | assay | setting | IC50
ANO1 del476-501/F803A |  | membrane voltage -100 mV | 84 µM
Anoctamin-1 (ANO1, Homo sapiens, UniProt Q5XXA6, del476-501/F807A) |  | membrane voltage 20 mV | 17.3 µM
ANO1 del476-501/F803A | inhibitor | mutant F777A at 100 mV, together with: 300 nM Ca2+ | 20.7 µM
ANO1 del476-501/E649I | inhibitor | E623I mutant at -80 mV | 148 µM
Anoctamin-1 (ANO1, Homo sapiens, UniProt Q5XXA6, del476-501/K629I) | inhibitor | 100 mV holding voltage | 215 µM
Anoctamin-1 (ANO1, Homo sapiens, UniProt Q5XXA6, del476-501/E649D) | inhibitor | mutant E623D | 56.9 µM
Anoctamin-1 (ANO1, Homo sapiens, UniProt Q5XXA6, del476-501/F646A) |  | membrane voltage 100 mV | 29.2 µM
ANO1 del476-501/E649I | inhibitor | E623I mutant at 40 mV | 120 µM

Single results of other studies
SMILES | target | assay | setting | measurement | result
O=C(O)[C@H]1[C@H](Cn2nnc3ccccc3c2=O)CC[C@@H]1C(=O)c1ccc(OCCC2CCOCC2)cc1 | 5-hydroxytryptamine receptor 2A (HTR2A, Homo sapiens, UniProt P28223) | ligand displacement | 10 µM | inhibition | 16.2%

Excerpt of the above (sample 3):
target | assay | setting | IC50
Anoctamin-1 (ANO1, Homo sapiens, UniProt Q5XXA6, del476-501/K629I) | inhibitor | 100 mV holding voltage | 215 µM
Anoctamin-1 (ANO1, Homo sapiens, UniProt Q5XXA6, del476-501/E649D) | inhibitor | mutant E623D | 56.9 µM
Anoctamin-1 (ANO1, Homo sapiens, UniProt Q5XXA6, del476-501/F646A) |  | membrane voltage 100 mV | 29.2 µM
ANO1 del476-501/E649I | inhibitor | E623I mutant at 40 mV | 120 µM
